{"data": "Assay results collected from several papers", "note": "Protocols differ between the studies behind these lines."}
{"SMILES": "CCOc1c([C@H](C)n2nc(C)c3c(N)ncnc32)cc(Cl)c(F)c1[C@@H]1CNC(=O)C1", "test system": "patients, monotherapy", "setting": "oral, 30 mg once daily, cycle 1 day 1", "quantity": "Tmax median", "result": "30 min"}
{"SMILES": "CCCCC[C@H](O)CC[C@@H]1[C@H]2Cc3cccc(OCC(=O)O)c3C[C@H]2C[C@H]1O", "test": "LC-MS/MS", "test system": "Japanese PAH patients, plasma", "setting": "inhaled, 54 µg, age ≥50 years, mean", "quantity": "Tmax", "result": "10.2 min"}
{"SMILES": "O=C(Nc1cnccc1Cl)N1CCN(Cc2ccc3c(c2)OC(F)(F)O3)CC1", "test system": "healthy young men, plasma", "setting": "oral, 10 mg once daily, day 1", "quantity": "tmax (median)", "result": "105 min"}
{"SMILES": "C[C@@H](N)C1CCN(S(=O)(=O)c2cccc3cnccc23)CC1", "test system": "healthy volunteers, fasted, plasma", "setting": "oral, 75 mg", "quantity": "tmax", "result": "30 min"}
{"SMILES": "N#CC[C@H](C1CCCC1)n1cc(-c2ncnc3[nH]ccc23)cn1", "test system": "children, plasma", "setting": "oral, after first dose, all dose levels", "quantity": "Tmax range", "result": "60 to 240 min"}
{"SMILES": "CO[C@H]1CC[C@H](N2C(=O)CNc3ncc(-c4ccc(C(C)(C)O)nc4)nc32)CC1", "test system": "patients, plasma", "setting": "oral, 30 mg, day -1, median", "quantity": "Tmax", "result": "93 min"}
{"SMILES": "C=CC(=O)NC1CCN(c2ncc3ncnc(Nc4ccc(Oc5ccc6c(c5)ncn6C)c(C)c4)c3n2)CC1", "test": "measured: total radioactivity", "test system": "healthy male volunteers, plasma", "setting": "intravenous infusion, 100 µg, 15 min infusion, 14C microtracer, median", "quantity": "tmax", "result": "14 min"}
{"SMILES": "Cc1nc(-c2ccc(OCC(C)C)c(C#N)c2)sc1C(=O)O", "test": "LC-MS/MS", "test system": "healthy subjects, plasma", "setting": "oral, 40 mg, together with: high-fat meal", "scale": "baseline: fasting", "quantity": "Tmax delay", "result": "40.2 min"}
{"SMILES": "CN(CCC(=O)O)C(=O)c1ccc2c(c1)CC[C@@H]1[C@@H]2CC[C@]2(C)C(c3cncc(F)c3)=CC[C@@H]12", "test system": "postmenopausal women, plasma", "setting": "60 mg, single dose, median", "quantity": "Tmax", "result": "121 min"}
{"SMILES": "O=C([O-])CCCCCCCNC(=O)c1ccccc1O.[Na+]", "test system": "healthy postmenopausal women", "setting": "300 mg, oral contraceptive alone, median", "quantity": "tmax", "result": "30 min"}
{"note": "Repeated from above:"}
{"SMILES": "C=CC(=O)NC1CCN(c2ncc3ncnc(Nc4ccc(Oc5ccc6c(c5)ncn6C)c(C)c4)c3n2)CC1", "test": "measured: total radioactivity", "test system": "healthy male volunteers, plasma", "setting": "intravenous infusion, 100 µg, 15 min infusion, 14C microtracer, median", "quantity": "tmax", "result": "14 min"}
